Measured values of several laboratories.
Compare with care: the assays were run in different laboratories. Values joined by “and” are separate records of one study, mostly repeats; a detail may differ. ± marks the error that the study gave.
JAK2: Tyrosine-protein kinase JAK2 (JAK2, Homo sapiens, UniProt O60674)
Chain of UniProt P08170 (whole entry, looked up): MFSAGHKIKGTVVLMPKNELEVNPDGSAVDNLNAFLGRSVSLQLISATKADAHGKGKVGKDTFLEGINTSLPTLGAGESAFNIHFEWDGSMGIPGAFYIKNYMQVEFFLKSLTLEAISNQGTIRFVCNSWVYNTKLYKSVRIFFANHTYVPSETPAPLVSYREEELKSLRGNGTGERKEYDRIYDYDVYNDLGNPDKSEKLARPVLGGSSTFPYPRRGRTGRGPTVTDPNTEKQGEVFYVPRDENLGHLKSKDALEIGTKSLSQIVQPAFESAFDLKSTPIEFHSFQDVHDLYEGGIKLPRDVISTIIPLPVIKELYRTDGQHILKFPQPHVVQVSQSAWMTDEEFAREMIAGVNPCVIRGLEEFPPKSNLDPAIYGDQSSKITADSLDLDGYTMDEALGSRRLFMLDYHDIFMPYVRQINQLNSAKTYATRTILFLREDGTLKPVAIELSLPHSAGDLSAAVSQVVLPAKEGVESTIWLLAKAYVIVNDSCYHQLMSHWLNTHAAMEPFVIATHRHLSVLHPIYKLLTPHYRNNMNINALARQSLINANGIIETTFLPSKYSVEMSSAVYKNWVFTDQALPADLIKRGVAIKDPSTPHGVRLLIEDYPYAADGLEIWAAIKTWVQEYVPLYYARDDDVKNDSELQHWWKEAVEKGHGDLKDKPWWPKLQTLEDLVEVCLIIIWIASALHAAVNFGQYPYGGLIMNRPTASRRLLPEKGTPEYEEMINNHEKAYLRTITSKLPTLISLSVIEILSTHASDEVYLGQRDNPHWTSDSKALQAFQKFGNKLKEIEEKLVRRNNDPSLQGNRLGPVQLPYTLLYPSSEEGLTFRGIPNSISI
Chain of UniProt P51812 (whole entry, unmodified, looked up): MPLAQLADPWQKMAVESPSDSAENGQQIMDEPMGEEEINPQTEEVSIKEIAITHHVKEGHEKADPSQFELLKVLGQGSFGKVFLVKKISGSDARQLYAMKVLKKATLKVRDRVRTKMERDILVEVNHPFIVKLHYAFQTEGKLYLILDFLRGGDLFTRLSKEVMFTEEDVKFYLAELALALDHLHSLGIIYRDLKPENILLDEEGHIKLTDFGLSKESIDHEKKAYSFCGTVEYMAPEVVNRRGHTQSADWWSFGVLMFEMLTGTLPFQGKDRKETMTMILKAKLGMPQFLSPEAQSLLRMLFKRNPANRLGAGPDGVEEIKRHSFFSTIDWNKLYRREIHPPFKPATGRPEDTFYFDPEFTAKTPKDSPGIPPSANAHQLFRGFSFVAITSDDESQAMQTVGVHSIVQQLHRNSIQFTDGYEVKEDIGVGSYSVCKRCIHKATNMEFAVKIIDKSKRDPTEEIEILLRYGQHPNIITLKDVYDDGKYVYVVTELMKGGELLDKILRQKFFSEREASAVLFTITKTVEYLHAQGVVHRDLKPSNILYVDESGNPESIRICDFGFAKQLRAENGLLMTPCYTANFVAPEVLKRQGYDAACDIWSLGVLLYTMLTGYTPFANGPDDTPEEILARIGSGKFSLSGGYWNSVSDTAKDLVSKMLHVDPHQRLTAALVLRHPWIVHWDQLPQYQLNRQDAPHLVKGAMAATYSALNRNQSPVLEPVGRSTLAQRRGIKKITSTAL
Chain of UniProt O60674 (whole entry, looked up): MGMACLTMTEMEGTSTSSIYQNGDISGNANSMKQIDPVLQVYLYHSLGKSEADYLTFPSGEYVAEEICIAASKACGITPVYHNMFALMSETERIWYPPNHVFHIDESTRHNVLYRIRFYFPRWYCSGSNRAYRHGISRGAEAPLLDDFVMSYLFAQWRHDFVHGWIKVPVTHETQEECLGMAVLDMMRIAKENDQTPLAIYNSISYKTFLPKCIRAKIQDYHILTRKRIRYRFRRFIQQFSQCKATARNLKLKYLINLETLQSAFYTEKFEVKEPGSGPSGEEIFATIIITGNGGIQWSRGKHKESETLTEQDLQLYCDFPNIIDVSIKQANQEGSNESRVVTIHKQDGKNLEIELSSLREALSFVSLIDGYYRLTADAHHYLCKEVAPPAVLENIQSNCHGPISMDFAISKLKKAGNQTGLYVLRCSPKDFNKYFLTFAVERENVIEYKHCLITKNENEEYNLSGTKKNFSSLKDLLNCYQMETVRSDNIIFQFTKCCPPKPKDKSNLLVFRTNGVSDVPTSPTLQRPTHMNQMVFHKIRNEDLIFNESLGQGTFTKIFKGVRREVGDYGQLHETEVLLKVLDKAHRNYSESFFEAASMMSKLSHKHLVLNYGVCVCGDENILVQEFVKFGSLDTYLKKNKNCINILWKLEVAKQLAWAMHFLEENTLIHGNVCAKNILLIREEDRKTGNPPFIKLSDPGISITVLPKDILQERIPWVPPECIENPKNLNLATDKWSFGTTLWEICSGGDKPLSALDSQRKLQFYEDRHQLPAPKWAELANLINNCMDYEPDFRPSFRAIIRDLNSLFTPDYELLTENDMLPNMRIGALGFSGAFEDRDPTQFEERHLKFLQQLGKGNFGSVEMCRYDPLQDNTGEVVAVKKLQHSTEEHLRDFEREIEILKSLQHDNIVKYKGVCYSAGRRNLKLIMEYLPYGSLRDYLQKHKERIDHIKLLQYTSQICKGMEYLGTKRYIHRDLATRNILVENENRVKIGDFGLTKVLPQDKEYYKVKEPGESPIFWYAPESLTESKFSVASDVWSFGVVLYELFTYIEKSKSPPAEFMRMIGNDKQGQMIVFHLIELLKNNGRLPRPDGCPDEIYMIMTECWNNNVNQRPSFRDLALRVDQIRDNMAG
Chain of UniProt P21761 (whole entry, looked up): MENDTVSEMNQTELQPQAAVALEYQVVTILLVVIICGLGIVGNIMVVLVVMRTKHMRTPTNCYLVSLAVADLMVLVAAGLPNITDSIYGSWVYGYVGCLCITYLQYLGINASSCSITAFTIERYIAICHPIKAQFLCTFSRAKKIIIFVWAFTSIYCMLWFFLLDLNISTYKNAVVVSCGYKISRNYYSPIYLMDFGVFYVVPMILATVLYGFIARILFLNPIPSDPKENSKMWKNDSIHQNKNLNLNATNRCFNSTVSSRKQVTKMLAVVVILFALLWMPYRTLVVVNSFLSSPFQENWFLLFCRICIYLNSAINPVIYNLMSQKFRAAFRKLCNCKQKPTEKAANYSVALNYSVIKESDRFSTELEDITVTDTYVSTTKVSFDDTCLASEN
Chain of UniProt Q9QXD6 (whole entry, unmodified, looked up): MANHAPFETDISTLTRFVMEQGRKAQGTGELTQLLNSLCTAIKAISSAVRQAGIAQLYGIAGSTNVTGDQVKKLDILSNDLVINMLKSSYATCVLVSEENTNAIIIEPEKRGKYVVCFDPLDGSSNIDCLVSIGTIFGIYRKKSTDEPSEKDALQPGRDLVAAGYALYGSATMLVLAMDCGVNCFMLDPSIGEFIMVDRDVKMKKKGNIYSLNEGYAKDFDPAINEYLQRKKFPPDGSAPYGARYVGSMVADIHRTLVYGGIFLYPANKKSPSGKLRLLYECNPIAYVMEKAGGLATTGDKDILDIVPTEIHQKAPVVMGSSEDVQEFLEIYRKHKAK
Chain of UniProt P30969 (whole entry, looked up): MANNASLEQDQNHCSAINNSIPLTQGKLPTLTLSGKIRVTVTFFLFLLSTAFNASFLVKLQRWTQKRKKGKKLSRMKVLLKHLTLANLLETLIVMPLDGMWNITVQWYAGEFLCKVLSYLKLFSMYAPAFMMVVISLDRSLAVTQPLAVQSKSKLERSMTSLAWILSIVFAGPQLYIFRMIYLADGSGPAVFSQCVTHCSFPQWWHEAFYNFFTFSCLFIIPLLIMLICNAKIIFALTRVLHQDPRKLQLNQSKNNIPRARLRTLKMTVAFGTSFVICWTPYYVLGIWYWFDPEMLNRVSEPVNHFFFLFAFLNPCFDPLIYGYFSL
Chain of UniProt Q9Y243 (whole entry, looked up): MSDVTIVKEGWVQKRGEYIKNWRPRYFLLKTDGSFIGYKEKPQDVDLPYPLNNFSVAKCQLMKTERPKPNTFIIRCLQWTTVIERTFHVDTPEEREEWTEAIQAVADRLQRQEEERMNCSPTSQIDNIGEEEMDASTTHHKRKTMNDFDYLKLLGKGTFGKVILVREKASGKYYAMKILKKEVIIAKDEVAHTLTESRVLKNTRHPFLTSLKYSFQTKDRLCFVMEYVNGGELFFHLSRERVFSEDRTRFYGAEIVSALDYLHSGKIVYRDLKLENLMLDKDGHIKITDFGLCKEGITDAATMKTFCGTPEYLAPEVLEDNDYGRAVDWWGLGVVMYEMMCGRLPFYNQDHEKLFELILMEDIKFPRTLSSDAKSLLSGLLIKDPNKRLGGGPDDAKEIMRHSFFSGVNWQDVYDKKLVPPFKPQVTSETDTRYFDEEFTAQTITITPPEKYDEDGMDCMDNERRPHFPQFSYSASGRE
Chain of UniProt Q6SZW1 (whole entry, unmodified, looked up): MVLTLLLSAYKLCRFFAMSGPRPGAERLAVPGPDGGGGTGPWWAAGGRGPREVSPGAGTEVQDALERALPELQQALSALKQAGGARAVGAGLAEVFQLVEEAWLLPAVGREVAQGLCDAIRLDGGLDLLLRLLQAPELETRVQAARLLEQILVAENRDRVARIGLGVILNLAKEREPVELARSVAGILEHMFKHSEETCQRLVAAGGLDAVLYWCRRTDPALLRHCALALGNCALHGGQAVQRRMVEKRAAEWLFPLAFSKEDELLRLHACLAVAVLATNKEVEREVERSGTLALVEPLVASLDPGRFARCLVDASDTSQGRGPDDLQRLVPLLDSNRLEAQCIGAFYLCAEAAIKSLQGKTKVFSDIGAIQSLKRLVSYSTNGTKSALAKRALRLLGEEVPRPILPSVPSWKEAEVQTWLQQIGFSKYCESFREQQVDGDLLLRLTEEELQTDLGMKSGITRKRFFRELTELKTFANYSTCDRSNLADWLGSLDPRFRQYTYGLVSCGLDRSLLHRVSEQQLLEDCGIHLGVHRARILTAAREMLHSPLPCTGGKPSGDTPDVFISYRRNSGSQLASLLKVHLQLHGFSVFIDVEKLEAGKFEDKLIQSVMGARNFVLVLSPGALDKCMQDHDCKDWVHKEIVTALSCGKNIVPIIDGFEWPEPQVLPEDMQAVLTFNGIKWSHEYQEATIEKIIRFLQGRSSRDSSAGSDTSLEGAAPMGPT

`COc1cc(-c2nc3ccc(C(=O)NCCCN4CCN(c5ccccn5)CC4)cc3n2C2CCC2)cc(OC)c1OC` gave an IC50 of 0.47 µM (ACVR1 (Homo sapiens, UniProt Q04771); target engagement in cells, BRET).
For `CCn1c(C)c(C(=O)c2ccccc2)c(=O)n1-c1ccc(C)c(C)c1`, the IC50 was 0.0194 µM (JAK2; enzyme activity, inhibitor, ADP detection).
For `C=CC(=O)N1CCc2ccc(-n3c(=O)ccc4cnc5ccc(-c6cnn(C)c6)cc5c43)cc21`, the IC50 was greater than 10 µM (YES1 (Homo sapiens, UniProt P07947); enzyme activity, inhibitor).
`O=c1c(-c2ccccc2)c[nH]n1-c1ccccn1` gave an IC50 of 5.4 µM (EGLN2 (Homo sapiens, UniProt Q96KS0); enzyme activity, inhibitor, europium VBC binding; 10 µM FeSO4, 2 mM ascorbate, with: 20 µM 2-oxoglutarate).
`Nc1ncnc2c1ncn2C1OC(COP(=O)(O)O)C(O)C1O` (centres unmarked) gave an IC50 of 4420 µM (Fructose-1,6-bisphosphatase 1 (Mus musculus, UniProt Q9QXD6, G27P); enzyme activity, inhibitor; His-tagged mouse G27P mutant).
`Nc1nc(Cl)nc2c1ncn2Cc1cc(OCC(F)F)cc(OC(F)F)c1` has an IC50 of greater than 10 µM (PDE9A (Homo sapiens, UniProt O76083); enzyme activity, inhibitor).
With `Cn1c(=O)n(C)c2cc(/C=C(\C#N)C(N)=O)ccc21` the IC50 was 7.1 µM (Ribosomal protein S6 kinase alpha-3, C-terminal kinase domain (RPS6KA3, Homo sapiens, UniProt P51812, T493M); kinase activity, inhibitor; with: 0.1 mM ATP).
`O=S(=O)(Nc1ccc(O)c2ccccc12)c1ccc(Cl)cc1` gave an IC50 of 37.5 µM (CD38 (Homo sapiens, UniProt P28907); enzyme activity, inhibitor, fluorescence).
`CC(C)C[C@H](NC(=O)[C@@H](Cc1c[nH]c2ccccc12)NC(=O)[C@H](Cc1ccc(O)cc1)NC(=O)[C@H](CO)NC(=O)[C@H](Cc1c[nH]c2ccccc12)NC(=O)[C@H](Cc1c[nH]cn1)NC(=O)[C@@H]1CCC(=O)N1)C(=O)N[C@@H](CCCNC(=N)N)C(=O)N1CCC[C@H]1C(=O)NCC(N)=O` has an IC50 of 0.0005 µM (Gonadotropin-releasing hormone receptor (Rattus norvegicus, UniProt P30969); ligand displacement in cells, radioligand).
For `N[C@@H](CCC(=O)N[C@@H](CS[Se]Cc1ccc(-c2cccc(C(O)c3ccc(Cl)c(Cl)c3)c2)cc1)C(=O)NCC(=O)O)C(=O)O` (some centres unmarked), the IC50 was 1.5 ± 0.7 µM (PTPN5 (Homo sapiens, UniProt P54829); enzyme activity, inhibitor; with: pNPP, GSH 1 mM).
With `CNC(=O)C1CCN(c2cc(C)c(F)cc2NC(=O)c2ccc(-c3c(C)ccc4[nH]ncc34)c(C)c2)CC1` the IC50 was 0.04 µM (EPHA4 (Homo sapiens, UniProt P54764); target engagement in cells, BRET).
`COC(=O)N1CCC(CN2CCC(CNC(=O)c3cccc4[nH]c(C(C)C)nc34)CC2)CC1` has an IC50 of greater than 10 µM (ABCB1 (Homo sapiens, UniProt P08183); transport).
`COC(=O)C[C@H](NC(=O)[C@H](C)NC(=O)[C@@H](NC(=O)OCc1ccccc1)C(C)C)C(=O)CF` gave an IC50 of 0.08 µM (Caspase-6 (CASP6, Homo sapiens, UniProt P55212); enzyme activity, inhibitor, fluorescence).
With `CN(C)c1ccc2c(c1)C(=O)N([C@H](CS)C(=O)O)C2=O` the IC50 was 1.5 ± 0.2 µM (Metallo-beta-lactamase type 2 (Serratia marcescens, UniProt P52699); enzyme activity, inhibitor; pH 7.0, with: chromacef 25 µM).
For `CCn1c(SC(C)C(=O)Nc2ccc(C)c(C)c2)nnc1C1CCN(C(=O)Nc2ccccc2)CC1` (centres unmarked), the IC50 was < 16 µM and 12.1 µM (Seed linoleate 13S-lipoxygenase-1 (Glycine max, UniProt P08170); enzyme activity, inhibitor).
The IC50 of `Nc1ncc(-c2cnn(C3CCNCC3)c2)cc1-c1nc2ccc(O)cc2o1` is reported as 0.123 µM (JAK2; enzyme activity, inhibitor, TR-FRET).
`CC(=O)NCCN(CC(=O)NCCN(CC(=O)NCCN(CC(=O)NCCC(N)=O)C(=O)C[C@@H](N)CCCNC(=N)N)C(=O)C[C@@H](N)Cc1ccccc1)C(=O)C[C@@H](N)Cc1ccccc1` has an IC50 of 28.7 ± 0.5 µM (HIV-1 TAR RNA; Tat/TAR complex displacement, FRET; room temperature, with: 10 nM Tat/TAR complex).
The IC50 of `CC(=O)N[C@@H]1[C@@H](OC(C)=O)[C@@H](O)[C@H](Oc2c(-c3ccc(O)cc3)oc3cc(O)cc(O)c3c2=O)O[C@H]1CC(C)C` is reported as 0.32 µM (RPS6KA3 (Homo sapiens, UniProt P51812); enzyme activity, inhibitor).
The IC50 of `O=C([O][Ti+2][O]C(=O)c1ccc([P+]([Au-][Cl])(c2ccccc2)c2ccccc2)cc1)c1ccc([P+]([Au-][Cl])(c2ccccc2)c2ccccc2)cc1.c1cc[cH-]c1.c1cc[cH-]c1` is reported as 0.355 µM (AKT3 (Homo sapiens, UniProt Q9Y243); enzyme activity, inhibitor, radiometric).
`COc1ccc(NC(=O)N2CCCCN3[C@H](CN(C)C)[C@H](c4ccc(C#Cc5ccccc5)cc4)[C@@H]3C2)cc1` gave an IC50 of 18 µM (Phenylalanine--tRNA ligase alpha subunit (Homo sapiens, UniProt Q9Y285); enzyme activity, inhibitor, absorbance).
`COc1cc(C(=O)NC2CCC(N3CCN(CC4CCC(C)C4)CC3)CC2)c(F)cc1Nc1ncc2c(n1)N(C1CCCC1(F)F)CC(F)(F)C(=O)N2C` (centres unmarked) gave an IC50 of 4.73e-05 µM (PLK1 (Homo sapiens, UniProt P53350); enzyme activity, inhibitor, ADP detection).
With `N#Cc1c(O)nsc1Nc1ccccc1C(F)(F)F` the IC50 was 12 µM (SARM1 (Homo sapiens, UniProt Q6SZW1, C635A); enzyme activity, inhibitor).
`CCn1c(-c2cc(NC(=O)c3cnccn3)n[nH]2)cc2ccc(OC)cc21` gave an IC50 of 15 µM (CSNK2A1 (Homo sapiens, UniProt P68400); enzyme activity, inhibitor, ADP detection).
The IC50 of `CCCn1cnc(C[C@H](NC(=O)c2cnccn2)C(=O)N2CCC[C@H]2C(N)=O)c1` is reported as greater than 50 µM (Thyrotropin-releasing hormone receptor (Mus musculus, UniProt P21761); ligand displacement, radioligand).
With `CN(C)CCNC(=O)c1cc(-c2ccncc2)nc2ccc(Br)cc12` the IC50 was 96.3 µM (TPR (Trypanosoma brucei brucei, UniProt P39051); inhibitor, DTNB-coupled colourimetric; with: substrate at Km).
With `C=C(NC(=O)C(=C)NC(=O)c1csc(C2=NC3c4csc(n4)C4NC(=O)c5csc(n5)C(C(C)(O)C(C)O)NC(=O)C5CSC(=N5)C(=CC)NC(=O)C(C(C)O)NC(=O)c5csc(n5)C3(CC2)NC(=O)C(CC(C)C)NC(=O)C(=C)NC(=O)C(C)NC(=O)C(C(C)CC)NC2C=Cc3c(C(C)O)cc(nc3C2O)C(=O)OC4C)n1)C(N)=O` (centres unmarked) the IC50 was 0.34 ± 0.04 µM (Proteasome subunit beta type-7, in 20S proteasome (PSMB7, Homo sapiens, UniProt Q99436); trypsin-like activity, inhibitor; purified 20S proteasome; 15 min preincubation, 37 °C, with: Boc-Leu-Arg-Arg-AMC substrate).
With `COc1cc(N2CCN(C)CC2)ccc1Nc1ncc2c(n1)N(C)c1ccc(C)cc1C(=O)N2CC(F)(F)F` the IC50 was greater than 10 µM (MAPK7 (Homo sapiens, UniProt Q13164); kinase activity; HeLa).
The IC50 of `O=C1/C=C/C(=O)N[C@@H](CC2CCCCC2)C(=O)N[C@@H](Cc2ccc(F)cc2)C(=O)N[C@@H](Cc2ccc([N+](=O)[O-])cc2)C(=O)NCCC[C@@H](C(=O)O)N1` is reported as 6.1 µM (Lck (Mus musculus, UniProt P06240); enzyme activity, inhibitor, absorbance).
`O=C(c1ccccc1)N1CCN(c2ccc(F)cc2)CC1` has an IC50 of greater than 100 µM (SEC14 (Saccharomyces cerevisiae, UniProt P24280); enzyme activity, inhibitor, radiometric).
